# Experimental data collected from several papers.
# Each numbered part is a random draw from the data of one study; scales do not carry over between parts. Substitutions count along the parent as printed.

# Block 1
# Target: ABI1, truncated, D143A, DHFR fusion (Arabidopsis thaliana, UniProt P49597)
# Technique: DHFR PCA, dose-response
# Medium: yeast
# Notes: Hill fit, mean, not affinity
# With: (+)-ABA, dose series
# Reading: lower = more sensitive
# Starting sequence: PYL1, truncated, DHFR fusion (Arabidopsis thaliana, UniProt Q8VZS8); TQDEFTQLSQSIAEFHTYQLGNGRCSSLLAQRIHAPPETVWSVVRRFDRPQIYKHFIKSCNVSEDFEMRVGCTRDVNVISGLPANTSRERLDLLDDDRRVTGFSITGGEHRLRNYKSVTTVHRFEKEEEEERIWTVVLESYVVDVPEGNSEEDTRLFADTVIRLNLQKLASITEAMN
Change,ABA EC50
R123Y,6.96 µM
G102M,63.9 µM
F66M,4.69 µM
D48Y,275 µM
V161T,304 µM
G71Y,266 µM
F157A,583 µM
H55C,0.232 µM
V70R,19.5 µM
Q10P,3.57 µM
V76S,160 µM
A35M,103 µM
H55F,1.55 µM
T17E,15.7 µM
R90N,59.8 µM
T173I,7.52 µM
D95N,8.26 µM
R99Q,4.83 µM
E151D,3.33 µM
F66H,8.54 µM
T1K,1.71 µM
Q7F,1.03 µM
E109W,108 µM
V142H,16 µM
P36L,5.49 µM

# Block 2
# Target: RNA binding protein fox-1 homolog 2, RRM domain, GST-SBP tag (RBFOX2, Homo sapiens, UniProt O43251-10, residues 100-194)
# Technique: RNA Bind-n-Seq
# Form: RNA
# Medium: in vitro
# Tested at: 365 nM
# Notes: natural RNA segment, single round, ends assumed
# Baseline: no-protein control
# Reading: higher = stronger binding
# Shared flanks, not repeated: GGGAGUUCUACAGUCCGACGAUC … UGGAAUUCUCGGGUGCCAA
# Target sequence (chain): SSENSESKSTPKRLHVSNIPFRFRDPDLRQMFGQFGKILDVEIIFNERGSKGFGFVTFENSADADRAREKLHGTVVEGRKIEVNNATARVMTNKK
Sequence,RBNS enrichment (R)
AUAUUUGGUCAUAAACCAGAAAUUAAAGAAAGAGGAUUAAGCUUUUUUGACUGAAAGUACUAAAAGUCAGCUUUACUAGUGCCAAACCUUUAAAUUUUCAAAAGAAAAUU,0.456
CUGAUUGGGUCAACAGUUGAUUAGUGGAAGACGGAGAGCAGAAGAAUUUUGUCAUAUCUAUUAGGCCAGAAAGUAAUCACUGAAGAAGCAGAUGGUAGGAGCUGGAGCAA,0.362
GUUACCAAAUUUUAUAUAAGAAUGGAAUAGUCAGUCUGGCCUUAAAGAGACACACAAAGAUGGGCUGUGAGCCCCUAGAAAGGGACUAGUUAGUUGCCUUUGAUAGAAUU,0.538
UUCUUACUAAUAUCCAUGGUUUGCAGGUUCUGUUAGGCCCUUUCCUUCUCCUUACUUCUUAUCCCCAACUCCCUACCCACCCCUCUUCAGUUUUCAGAUUGGAGAUUCAA,0.588
UCUCUGUGAAUAAAUCCUUGUUAAGUUAACCCUUUGCUCUUCCUCCCAUGUGUAUUUUCUUACAUACUGUGAAUGUGAAGACCCUAACUGGUACACUUGAUCUUAUGUCC,0.365
AAUUCACUUUAUACAUUAUUAAUAGUAGAUAAAUUUGUGUAAAAUGUAUCGCUGCUGUCCAGCAUGCUUUUCUUCUUUUUAUCCAAACAUGAGGCCAGGAGGAUAAUUAA,6.03
AAGUACUCAAGUCUUUUGGGUAGUGAGCUGGAAAGCCUACAGGAAAAGAGGGGUACCUGUUUUCAUUUGAAAACUUUGAUUCAUGGAACCUUUAAAACUAAUCUCAGAAA,0.319
UUUCUCAGAGUCUUUUUUUUUUUUUGAGACAGAGUCUCGCUGUUACCCAGGCUGGAGUGCAAUGGCGCAAACUUGGCUCACUGCAACCUCUGCCCCCUGGGUUCAAGCGA,0.365
UAACUAUAAAUCUGGCUAUUUCUUCAUCCAGUAACCUAAAUAUGAUAUAUACUUUAUAUUGGGUAUGAGAGAUCUGUGUUUGGGUUUUAUAGAUUUUAGCUUUUGACACG,0.343
GAAAUAAGUCAGGUUCUUUACAAAUGGUAUUUUGAUAGAUACUGGAUUGUGUUUGUGCCAUAUUUGUGCCAUUCUUUUAAGAACAAUGUUGCAACACAUUCAUUUGGAUA,1.47
UUGCAAACCCACAGAGUUUAGGCUGGUGCUGCCAAAAAGAAAAGCAACAUAGAGUUUAAGUAUCCAGUAGUGAUUUGUAAACUUGUUUUUCAUUUGAAGCUGAAUAUAUA,0.437
UUCCACGUACUGCACGGUCGUAUUUCAUGAGCUUUCUGUCCAUAGCACAGAAACAGAGCAGAAAGUAGUACAAUCAUGUUGGACCUUCUUUCUGUUCUCUUUACUCUUCU,0.341

# Block 3
# Target: Sal-like protein 4, full length isoform B (SALL4, Homo sapiens, UniProt Q9UJQ4-2, residues 1-616)
# Technique: universal PBM
# Form: double-stranded DNA, one strand shown
# Medium: in vitro
# Tested at: not given
# Notes: 8-mer, flanks averaged, mean of replicates
# Reading: higher = stronger binding
Sequence,E-score
AAGTGTGC,0.0895
AATCCTGC,-0.0446
CGAGTTGC,-0.151
GACTACTA,0.139
ATGACAAG,0.0646
AAATGCAA,0.273
ACTGCCAA,-0.0292
GCCCCAAA,-0.175
CCTTTTAC,0.138
GCAATGCC,-0.118
GTTCACTA,0.0544
CAAGCTCG,-0.206
CACGTCGA,-0.188
GGGAATAA,0.211
AGGGGTGC,-0.362
GATTGCTA,0.0109
GCTGACTA,-0.139
CTCCCACA,-0.0948
AGGCCCTA,-0.206
TACTAATA,0.284
AAAGGGAA,0.0876

# Block 4
# Target: Centromere-binding protein 1, full length, N-terminal tag (CBF1, Saccharomyces cerevisiae, UniProt P17106, residues 1-351)
# Chain of UniProt P17106 (whole entry, looked up): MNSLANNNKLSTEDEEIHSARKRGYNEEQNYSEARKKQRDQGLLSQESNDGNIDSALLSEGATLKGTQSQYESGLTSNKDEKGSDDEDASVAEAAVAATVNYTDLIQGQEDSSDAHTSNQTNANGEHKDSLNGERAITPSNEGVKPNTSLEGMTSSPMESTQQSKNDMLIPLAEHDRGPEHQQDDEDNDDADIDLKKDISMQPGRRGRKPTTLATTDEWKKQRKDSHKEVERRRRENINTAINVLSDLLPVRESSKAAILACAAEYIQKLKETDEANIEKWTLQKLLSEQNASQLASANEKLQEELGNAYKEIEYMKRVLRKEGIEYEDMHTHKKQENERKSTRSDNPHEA
# Technique: protein-binding microarray
# Form: double-stranded DNA, one strand shown
# Medium: in vitro
# Tested at: 0.8 µM
# Notes: whole 60-bp probe, no competitor
# Reading: higher = stronger binding
# Shared flanks, not repeated: … GTCTTGATTCGCTTGACGCTGCTG
Sequence,fluorescence intensity [a.u.]
CTACCAACCATATTACAAGTCACAAATTGGTAATTC,564
CTATTCCCTTAATATGTCATGAGAATAAAATATTTC,655
GAATGAAACTGATGTCTGATGCTGTTCTTTCTTTAG,526
GAAATTATCAGCCTCCATGTGCTTGCGTGCTGTTAG,561
GAATACGTTCTTTTTCAGGTGATGGTGCCATTTTAG,549
GAACCTTGGGAAACGCACGCGCGAAGGAGGAAATAG,573
GAATGTGTGCCGGGTCATGAGATGCCAAACTAATAG,663
CTACTCGAAGAAAAACACATGACCAGAATGATATTC,2540
CTATTTTTCGCATTGTGCACGGAAGGCTTCACCTTC,515
GAAACTAATGCCTTTCACGATATGTGTGGCAGATAG,550
CTATTCAGCAAACGTGATTTGCAAAACAACGGTTTC,2240
CTATGATGTAATAGTGATGTTATATTGCTTTCGTTC,538
CTATTAATGACGAATCACGAAGAAAATATATCTTTC,533
GAAGGCTGTTGGTTTGTCGTGATACGTAGTGCTTAG,565
GAACTCAACTTTGAATATGATCACATTATTTTTTAG,1270
CTAAAGAAGGTGAGCGTGATGGCGTAAATAATATTC,624
GAAAGCTTTATGAGTTCCGTCACGTTTCTTGTTTAG,2090
CTAATTACCAAGAACCACGTTATTTGAGAGAGGTTC,597
CTACCACGATAAAAGCACGCGACCGAAAAGGCGTTC,1310
CTACTTGGTCAGCTTGATGTTACCAGCACCATCTTC,523
CTAGTTCTTGTACACGTGGAAACGCCCGATATATTC,3410
CTAGCACTGTTCAATTACATGACGTATCTTACGTTC,495
CTACCGTAAAGTTCGATCGTGACTTCCTGTTGCTTC,633
CTAAAAAGTGCGCATCACGATTTATCATCCTTCTTC,550
GAATGAATTGTGTTGCACGTGACTAAACATTGTTAG,27200

# Block 5
# Target: CCND1, cyclin fold, Cln2 fusion (human)
# Technique: yeast growth competition, sequencing
# Medium: yeast
# Notes: weak parent motif
# Baseline: not given
# Reading: higher = stronger binding
# Starting sequence: CDC6 docking peptide (human); TLKGRRLVFDNQL; partner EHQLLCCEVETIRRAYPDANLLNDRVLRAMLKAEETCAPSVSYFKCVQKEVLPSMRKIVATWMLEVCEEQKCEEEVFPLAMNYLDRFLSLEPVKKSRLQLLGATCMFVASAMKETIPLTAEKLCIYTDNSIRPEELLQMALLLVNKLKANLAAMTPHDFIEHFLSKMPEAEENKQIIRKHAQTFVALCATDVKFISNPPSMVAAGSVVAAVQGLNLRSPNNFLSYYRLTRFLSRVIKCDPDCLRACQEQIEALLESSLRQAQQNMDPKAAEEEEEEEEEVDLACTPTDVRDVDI
Change,normalised enrichment score
F9D,0.371
V8N,1.37
F9A,-0.292
V8Y,-0.0367
V8Q,0.0555
G4Q,0.451
D10K,-0.377
R6C,0.736
L2G,0.258
N11F,0.978
L2R,1.08
Q12A,0.398
L7F,-0.0927
F9C,-0.324
K3C,0.953
R5E,0.44
R5W,0.448
L13H,-0.21
L13V,0.635
V8H,0.35
T1G,-0.0715
Q12F,0.143
L7H,-0.276
T1F,-0.193
L13A,0.565

# For quick reference, copied from above (block 4):
Sequence,fluorescence intensity [a.u.]
GAAGGCTGTTGGTTTGTCGTGATACGTAGTGCTTAG,565
CTAGCACTGTTCAATTACATGACGTATCTTACGTTC,495
CTAAAGAAGGTGAGCGTGATGGCGTAAATAATATTC,624
CTACTTGGTCAGCTTGATGTTACCAGCACCATCTTC,523
GAAACTAATGCCTTTCACGATATGTGTGGCAGATAG,550
CTAATTACCAAGAACCACGTTATTTGAGAGAGGTTC,597
CTACCAACCATATTACAAGTCACAAATTGGTAATTC,564
GAATGTGTGCCGGGTCATGAGATGCCAAACTAATAG,663
CTATTAATGACGAATCACGAAGAAAATATATCTTTC,533
CTATTTTTCGCATTGTGCACGGAAGGCTTCACCTTC,515
